Results collected from several papers.
Protocols differ between the studies behind these lines. pEC50, pIC50: −log10 of the molar value.
Organism: Trypanosoma brucei

With `O=C(Nc1ccc2c(c1)CN(c1ccc(Cl)cc1)C2=O)N1CC[C@H](F)C1` the pIC50 was < 4.19 (parasite growth, resazurin; RHODESIENSE).
With `CCCCOC(=O)/C=C/c1ccc(O)c(O)c1` the pIC50 was 6.46 (parasite growth; RHODESIENSE STIB900; 70 h, trypomastigote).
For `Cc1ccc2c(c1Br)C(O)(CC(=O)c1ccc3c(c1)OCO3)C(=O)N2` (centres unmarked), “sugar nucleotide levels” read “no effect” (LC-MS/MS; wild type; 100 µM, 3 h; baseline: untreated).
The pIC50 of `CC(C)(C)OC(=O)/C=C/c1ccc(O)c(C(=O)C(CCC(=O)OC(C)(C)C)CCC(=O)OC(C)(C)C)c1` is reported as 5.64 (parasite growth; RHODESIENSE STIB900; 70 h, trypomastigote).
`O=C(Nc1cc2nc(-c3ccc(F)c(F)c3)c(CO)n2cn1)N1CC[C@H](F)C1` has a pIC50 of 5.92 (parasite growth; Squib 427 suramin-sensitive; 3 days).
`COc1cc(O)c(-c2cc(-c3c(C)cc(O)c4c(OC)ccc(-c5c(O)cc(OC)c6c5C[C@@H](C)N(C)[C@@H]6C)c34)c(O)c3c(OC)cc(C)cc23)c2c1[C@@H](C)N(C)[C@H](C)C2` gave a pIC50 of 6.32 (parasite growth; RHODESIENSE STIB900; trypomastigote).
`COc1ccc(CONC(=O)C2OC(C)(C)OC2COP(=O)(OCOC(=O)C(C)(C)C)OCOC(=O)C(C)(C)C)c(OC)c1` (centres unmarked) gave a pIC50 of 4.41 (parasite growth, resazurin).
With `O=C(Nc1ccc2c(c1)CN(c1ccc(Cl)c(Cl)c1)C2=O)N1CCN(c2ccccc2)CC1` the pIC50 was 5.68 (parasite growth, resazurin; RHODESIENSE).
With `O=C(Nc1cc2nc(-c3ccc(F)c(F)c3)cn2cn1)N1CC[C@H](F)C1` the pIC50 was 6.68 (parasite growth; Squib 427 suramin-sensitive; 3 days).
With `CC(=O)OC[C@H]1O[C@@H]([Se][Se][C@@H]2O[C@H](COC(C)=O)[C@H](OC(C)=O)[C@H](OC(C)=O)[C@H]2OC(C)=O)[C@H](OC(C)=O)[C@@H](OC(C)=O)[C@H]1OC(C)=O` the inhibition was 37 to 97% (parasite growth, flow cytometry; 5 µM, 24 h).
The pIC50 of `O=C(Nc1ccc2c(c1)CN(c1ccc(Br)cc1)C2=O)N1CCN(c2ccc(F)cc2)CC1` is reported as 7.30 (parasite growth, resazurin; RHODESIENSE).
`CC(C)(C)OC(=O)/C=C/c1ccc(O)c(O)c1` has a pIC50 of 5.92 (parasite growth; RHODESIENSE STIB900; 70 h, trypomastigote).
For `CC(=O)NCCCOc1cc(F)c(-c2c(Cl)nc3ncnn3c2N[C@@H](C)C(F)(F)F)c(F)c1`, the pEC50 was 6.86 (parasite growth, SYBR Green; 72 h).
`O=C(Nc1ccc2c(c1)CN(c1ccc(Cl)cc1)C2=O)N1CCN(c2ccc(F)cc2)CC1` gave a pIC50 of 6.10 (parasite growth, resazurin; RHODESIENSE).

For quick reference, copied from above:
With `O=C(Nc1ccc2c(c1)CN(c1ccc(Cl)cc1)C2=O)N1CC[C@H](F)C1` the pIC50 was < 4.19 (parasite growth, resazurin; RHODESIENSE).
With `CCCCOC(=O)/C=C/c1ccc(O)c(O)c1` the pIC50 was 6.46 (parasite growth; RHODESIENSE STIB900; 70 h, trypomastigote).
